Measured values of several laboratories.
A part holds a random share of what one study measured. Changes are numbered by the printed parent chain.

Sample 1
Target: CEP164, C-terminal peptide (human)
Method: DHFR complementation, deep sequencing
Matrix: yeast
Setting: single substitutions, model-inferred values
Relative to: wild type
Reading: higher = weaker binding
Starting sequence: PDZK1, PDZ domain 2 (human); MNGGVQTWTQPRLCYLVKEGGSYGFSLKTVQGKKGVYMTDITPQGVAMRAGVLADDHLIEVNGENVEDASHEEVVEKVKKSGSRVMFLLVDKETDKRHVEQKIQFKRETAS; partner HNRVKVYRF
Substitution	binding free energy change
G63D	1.6 kJ/mol
D91E	0.652 kJ/mol
A47D	1.2 kJ/mol
L16K	5.76 kJ/mol
V66F	3.3 kJ/mol
Q44I	2.81 kJ/mol
A47I	3.4 kJ/mol
M86I	0.124 kJ/mol
E64N	0.611 kJ/mol

Sample 2
Target: Transcriptional repressor CTCF (CTCF, Homo sapiens, UniProt P49711, residues 1-727, full length assumed)
Sequence of UniProt P49711 (whole entry, looked up): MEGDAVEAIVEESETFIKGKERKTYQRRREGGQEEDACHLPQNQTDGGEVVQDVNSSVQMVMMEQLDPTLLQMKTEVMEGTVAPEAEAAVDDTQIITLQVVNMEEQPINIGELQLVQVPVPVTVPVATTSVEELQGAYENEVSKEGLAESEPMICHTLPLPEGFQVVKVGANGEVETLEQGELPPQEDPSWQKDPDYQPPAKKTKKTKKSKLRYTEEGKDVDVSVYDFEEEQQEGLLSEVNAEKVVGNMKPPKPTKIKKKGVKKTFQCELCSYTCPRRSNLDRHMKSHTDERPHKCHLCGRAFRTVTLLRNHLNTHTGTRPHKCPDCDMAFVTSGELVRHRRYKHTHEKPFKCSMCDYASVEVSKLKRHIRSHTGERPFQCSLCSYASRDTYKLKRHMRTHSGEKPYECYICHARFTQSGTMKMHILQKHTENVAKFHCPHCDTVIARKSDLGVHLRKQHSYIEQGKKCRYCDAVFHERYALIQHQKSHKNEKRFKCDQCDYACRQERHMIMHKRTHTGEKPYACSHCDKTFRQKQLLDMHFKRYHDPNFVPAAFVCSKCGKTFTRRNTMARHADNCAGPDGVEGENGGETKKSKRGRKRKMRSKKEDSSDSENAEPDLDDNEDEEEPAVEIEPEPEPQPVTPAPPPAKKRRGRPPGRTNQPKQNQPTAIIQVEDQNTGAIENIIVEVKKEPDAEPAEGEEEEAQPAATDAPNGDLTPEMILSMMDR
Method: protein-binding microarray
Molecule type: double-stranded DNA, one strand shown
Matrix: in vitro
Tested at: not given
Setting: k-mer, scored over probes, only values ≥0.25
Reading: higher = stronger binding
Oligonucleotide	E-score
AATTGATA	0.306
GCAATATA	0.299
CATACAAA	0.277
AATATAGT	0.296
ATATCGCG	0.262
GCGCCAAC	0.299
TATAATCA	0.277
GAAAATTA	0.287
AAAAAGTA	0.277
AATGTGCG	0.283
AGGGGCGC	0.373
CCCTAGCG	0.412
AATATGTG	0.315
TAATAGTA	0.301
ACAATTAT	0.28
AAGATAAT	0.267
TATGATAA	0.361
CAATAATA	0.346
TATAAAAA	0.351
AGGGGGCG	0.482
CGTAATTA	0.306
ATATAGGA	0.274
ATTTTCCG	0.37
TAACACAA	0.303
AATAATGT	0.35

Sample 3
Target: Prothrombin, mature alpha-thrombin (F2, Homo sapiens, UniProt P00734)
Method: aptamer microarray, sandwich
Molecule type: DNA with 2'F-ANA
Matrix: in vitro
Tested at: 200 nM
Setting: whole 15-mer aptamer, many near background
With: Cy3 exosite-II aptamer, 400 nM
Reading: higher = stronger binding
Oligonucleotide: GGTTGGTGTGGTTGG
Modification	mean fluorescence intensity [a.u.]
2'F-ANA at 2 5 10 13	41.5
2'F-ANA at 12 13 14 15	254
2'F-ANA at 1 2 3 4 8 10 11 12 15	73.9
2'F-ANA at 3 4 5 7 12 13 14	54.5
2'F-ANA at 6 7 8 10 11 13 14 15	140
2'F-ANA at 1 3 4 6 10 11 12 13 15	63.5
2'F-ANA at 1 8 9 10 12 13 14 15	52.9
2'F-ANA at 2 3 5 6 8 9 10 11 12 13	54.9
2'F-ANA at 1 4 5 11 12 13 15	65.8
2'F-ANA at 1 5 7 9 10 12 13 14 15	49.8
2'F-ANA at 2 3 4 5 10 12 13	58.6
2'F-ANA at 1 3 5 6 7 8 9 11	59.2
2'F-ANA at 1 2 7 9 13 15	125
2'F-ANA at 2 5 9 10 11	49.3
2'F-ANA at 2 3 5 6 7 8 9 12	187
2'F-ANA at 1 2 4 5 8 9 11 12 13 15	95.3
2'F-ANA at 1 2 6 7 10	51.3
2'F-ANA at 1 4 6 7 11 15	87.6
2'F-ANA at 2 5 7 8 9 10 13	63.7
2'F-ANA at 1 2 5 8 10 12 13 15	47.3
2'F-ANA at 1 4 6 8 13 15	87.8

Sample 4
Target: CCND3, cyclin fold, Cln2 fusion (human)
Method: yeast growth competition, sequencing
Matrix: yeast
Setting: weak parent motif
Relative to: not given
Reading: higher = stronger binding
Starting sequence: RBL2 docking peptide (human); STTRRRLFVENDS; partner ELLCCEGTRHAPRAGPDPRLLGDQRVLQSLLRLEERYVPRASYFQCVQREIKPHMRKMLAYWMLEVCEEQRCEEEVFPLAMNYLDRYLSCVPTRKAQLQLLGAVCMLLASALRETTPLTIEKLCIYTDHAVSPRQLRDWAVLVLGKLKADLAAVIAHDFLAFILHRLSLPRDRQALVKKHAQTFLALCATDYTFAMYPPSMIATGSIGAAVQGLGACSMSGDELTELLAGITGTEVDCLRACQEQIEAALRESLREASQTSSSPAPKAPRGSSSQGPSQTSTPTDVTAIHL
Substitution	normalised enrichment score
STTRRRYFVENDS [L7Y]	0.0382
STTRRYLFVENDS [R6Y]	0.0316
STTRRALFVENDS [R6A]	0.134
ATTRRRLFVENDS [S1A]	0.147
ETTRRRLFVENDS [S1E]	0.0395
STTRMRLFVENDS [R5M]	0.159
SNTRRRLFVENDS [T2N]	0.192
STTLRRLFVENDS [R4L]	0.253
STTRRRLFVENDQ [S13Q]	0.0109
STTRRRLFVELDS [N11L]	0.142
STTRRRLFVENMS [D12M]	0.0791
STTRRRLFVERDS [N11R]	0.156
STTRRNLFVENDS [R6N]	0.158
STTRRRLFVKNDS [E10K]	0.0533
STTRVRLFVENDS [R5V]	0.112
STTRRRLFVENDR [S13R]	0.215
STTRRRLSVENDS [F8S]	0.172
STTRRRLFVENDY [S13Y]	0.155

For quick reference, copied from above (sample 4):
Substitution	normalised enrichment score
STTRRYLFVENDS [R6Y]	0.0316
STTRRRLFVENDQ [S13Q]	0.0109
ETTRRRLFVENDS [S1E]	0.0395
STTLRRLFVENDS [R4L]	0.253
STTRRRLFVENMS [D12M]	0.0791
